{"data": "Measurements from different studies", "note": "Numbered parts are unrelated; each lists some results of a single study. Values joined by “and” are separate records of one study, mostly repeats; a detail may differ.", "UniProt P24723, sequence (whole entry, looked up)": "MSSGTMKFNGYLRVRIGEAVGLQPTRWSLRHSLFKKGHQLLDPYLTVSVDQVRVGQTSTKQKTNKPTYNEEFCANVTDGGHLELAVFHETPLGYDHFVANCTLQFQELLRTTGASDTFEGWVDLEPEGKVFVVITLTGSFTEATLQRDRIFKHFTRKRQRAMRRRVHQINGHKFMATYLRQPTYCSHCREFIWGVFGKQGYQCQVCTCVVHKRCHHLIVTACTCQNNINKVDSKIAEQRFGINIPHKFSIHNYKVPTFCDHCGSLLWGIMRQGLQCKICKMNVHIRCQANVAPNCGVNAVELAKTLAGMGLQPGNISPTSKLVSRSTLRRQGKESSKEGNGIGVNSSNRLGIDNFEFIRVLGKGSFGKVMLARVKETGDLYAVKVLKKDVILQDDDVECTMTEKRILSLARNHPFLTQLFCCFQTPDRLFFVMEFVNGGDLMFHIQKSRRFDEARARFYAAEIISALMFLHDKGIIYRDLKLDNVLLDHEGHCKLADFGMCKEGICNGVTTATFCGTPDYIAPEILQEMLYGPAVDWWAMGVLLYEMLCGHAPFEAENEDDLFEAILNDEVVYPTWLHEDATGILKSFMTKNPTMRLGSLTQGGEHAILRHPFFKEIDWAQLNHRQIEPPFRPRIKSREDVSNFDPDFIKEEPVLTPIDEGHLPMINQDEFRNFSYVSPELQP", "UniProt Q02779, sequence (whole entry, looked up)": "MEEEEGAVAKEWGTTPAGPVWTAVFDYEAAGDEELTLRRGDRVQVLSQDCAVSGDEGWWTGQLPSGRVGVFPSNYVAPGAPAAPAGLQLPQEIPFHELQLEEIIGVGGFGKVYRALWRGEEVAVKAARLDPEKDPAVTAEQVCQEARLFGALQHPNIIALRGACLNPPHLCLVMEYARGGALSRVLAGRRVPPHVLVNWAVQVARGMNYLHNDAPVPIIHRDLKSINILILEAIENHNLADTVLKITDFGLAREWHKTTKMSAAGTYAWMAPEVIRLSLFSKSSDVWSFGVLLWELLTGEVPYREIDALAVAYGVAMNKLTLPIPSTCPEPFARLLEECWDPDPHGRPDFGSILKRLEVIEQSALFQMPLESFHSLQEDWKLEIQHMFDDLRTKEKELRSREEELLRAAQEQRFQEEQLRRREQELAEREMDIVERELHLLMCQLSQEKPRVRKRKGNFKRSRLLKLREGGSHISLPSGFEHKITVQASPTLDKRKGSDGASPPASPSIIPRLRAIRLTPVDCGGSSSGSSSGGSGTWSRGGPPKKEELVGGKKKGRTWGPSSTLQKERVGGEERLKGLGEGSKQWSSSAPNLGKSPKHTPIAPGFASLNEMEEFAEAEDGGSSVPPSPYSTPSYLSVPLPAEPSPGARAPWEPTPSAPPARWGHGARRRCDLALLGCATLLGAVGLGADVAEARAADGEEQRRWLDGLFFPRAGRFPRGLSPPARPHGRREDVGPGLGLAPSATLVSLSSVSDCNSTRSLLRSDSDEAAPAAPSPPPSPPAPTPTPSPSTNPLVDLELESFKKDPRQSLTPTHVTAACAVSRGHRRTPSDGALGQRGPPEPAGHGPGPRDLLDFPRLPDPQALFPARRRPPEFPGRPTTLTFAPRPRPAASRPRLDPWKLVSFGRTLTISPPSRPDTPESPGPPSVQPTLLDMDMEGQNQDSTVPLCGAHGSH", "UniProt Q13164, sequence (whole entry, looked up)": "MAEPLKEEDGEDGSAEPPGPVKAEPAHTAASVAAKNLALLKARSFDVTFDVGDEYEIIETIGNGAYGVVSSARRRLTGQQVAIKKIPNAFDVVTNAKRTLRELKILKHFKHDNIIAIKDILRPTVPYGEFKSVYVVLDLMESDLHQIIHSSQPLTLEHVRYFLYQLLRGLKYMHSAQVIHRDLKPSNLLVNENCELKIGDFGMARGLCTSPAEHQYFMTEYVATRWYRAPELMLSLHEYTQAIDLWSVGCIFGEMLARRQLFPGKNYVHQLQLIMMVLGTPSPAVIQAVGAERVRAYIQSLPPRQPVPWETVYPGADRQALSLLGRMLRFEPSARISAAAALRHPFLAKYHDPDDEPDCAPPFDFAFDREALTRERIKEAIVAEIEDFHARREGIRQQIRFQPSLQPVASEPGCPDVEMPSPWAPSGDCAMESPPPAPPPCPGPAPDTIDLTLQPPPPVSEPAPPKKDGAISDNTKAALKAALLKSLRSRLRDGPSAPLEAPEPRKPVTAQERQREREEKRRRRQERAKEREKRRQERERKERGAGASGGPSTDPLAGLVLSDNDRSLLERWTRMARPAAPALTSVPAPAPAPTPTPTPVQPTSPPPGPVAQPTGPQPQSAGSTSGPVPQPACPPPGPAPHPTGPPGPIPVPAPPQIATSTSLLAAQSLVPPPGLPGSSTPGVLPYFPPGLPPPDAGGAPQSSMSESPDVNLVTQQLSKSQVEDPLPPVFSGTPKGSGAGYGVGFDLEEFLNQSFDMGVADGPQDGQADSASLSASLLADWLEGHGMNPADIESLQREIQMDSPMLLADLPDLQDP", "UniProt P41240, sequence (whole entry, looked up)": "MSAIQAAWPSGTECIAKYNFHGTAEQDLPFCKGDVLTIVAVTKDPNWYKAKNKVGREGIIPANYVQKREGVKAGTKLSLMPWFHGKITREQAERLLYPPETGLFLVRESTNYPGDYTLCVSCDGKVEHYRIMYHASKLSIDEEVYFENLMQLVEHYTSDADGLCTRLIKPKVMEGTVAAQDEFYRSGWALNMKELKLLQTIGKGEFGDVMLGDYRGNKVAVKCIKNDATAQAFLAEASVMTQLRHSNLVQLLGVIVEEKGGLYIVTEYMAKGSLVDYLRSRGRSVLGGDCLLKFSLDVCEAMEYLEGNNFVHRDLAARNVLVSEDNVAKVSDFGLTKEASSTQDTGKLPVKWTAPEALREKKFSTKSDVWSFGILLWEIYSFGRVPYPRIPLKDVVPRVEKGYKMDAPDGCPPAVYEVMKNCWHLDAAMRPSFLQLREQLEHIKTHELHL", "UniProt Q9P289, sequence (whole entry, looked up)": "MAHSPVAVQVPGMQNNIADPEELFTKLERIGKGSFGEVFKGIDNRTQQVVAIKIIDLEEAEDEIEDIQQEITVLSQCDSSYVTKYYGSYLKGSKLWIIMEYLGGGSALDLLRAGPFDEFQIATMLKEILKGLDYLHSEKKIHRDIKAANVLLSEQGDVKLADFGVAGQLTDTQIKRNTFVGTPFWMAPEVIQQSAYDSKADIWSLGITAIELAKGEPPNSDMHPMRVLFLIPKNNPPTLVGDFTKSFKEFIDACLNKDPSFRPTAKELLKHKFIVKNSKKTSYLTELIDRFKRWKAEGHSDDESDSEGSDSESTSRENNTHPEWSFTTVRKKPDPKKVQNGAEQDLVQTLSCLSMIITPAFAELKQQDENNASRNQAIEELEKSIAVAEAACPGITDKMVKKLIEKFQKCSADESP"}
{"data": "Study 1", "cell line": "mouse MPNST tumor cells", "method": "high-content nuclear imaging", "refers to": "cell number", "concentration": "10 µM", "time": "12 h", "notes": "mean of 2 replicates", "baseline": "plate mean", "reading": "higher = more cells"}
{"Compound": "OCCN1CCN(CCCN2c3ccccc3C=Cc3ccccc32)CC1", "nuclei count": "1.57 z-score"}
{"Compound": "Nc1ccc(S(=O)(=O)Nc2nccs2)cc1", "nuclei count": "0.938 z-score"}
{"Compound": "CCc1nc(N)nc(N)c1-c1ccc(Cl)cc1", "nuclei count": "-0.865 z-score and -2.69 z-score"}
{"Compound": "CC(C)C[C@H](NC(=O)[C@H](Cc1ccccc1)NC(=O)c1cnccn1)B(O)O", "nuclei count": "-5.71 z-score"}
{"Compound": "CC(CN(C)C)C(C)(O)Cc1ccc(Cl)cc1 (centres unmarked)", "nuclei count": "3.22 z-score"}
{"Compound": "CNc1nc(-c2ccc3c(N)n[nH]c3c2)cc(N2C[C@@H](C(=O)NC3CCCCC3)CC[C@H]2C)n1", "nuclei count": "0.753 z-score"}
{"Compound": "Nc1ncc2c(n1)CC(c1ccco1)CC2=O (centres unmarked)", "nuclei count": "0.479 z-score"}
{"Compound": "c1coc(-c2nnc3sc(C4CCCCC4)nn23)c1", "nuclei count": "0.843 z-score"}
{"Compound": "CCOc1ccc(-c2nc(-c3cccc4c3CCC4NCCO)no2)cc1OCC (centres unmarked)", "nuclei count": "-5.74 z-score"}
{"Compound": "CCCCCCCCc1ccc(CCC(N)(CO)CO)cc1", "nuclei count": "-4.95 z-score"}
{"data": "Study 2", "species": "mouse", "sample": "microsomes or S9", "concentration": "2 µM", "time": "0.5 h"}
{"SMILES": "Cc1ccc(Cl)cc1NC(=O)Cn1ncc2ccccc2c1=O", "remaining compound [%]": 2.02}
{"SMILES": "Cc1cc(C)nc(SCc2nc3scc(C)n3c2Br)n1", "remaining compound [%]": 0.0444}
{"SMILES": "COCCCNc1nnc(Cc2ccc(Cl)cc2)c(O)n1", "remaining compound [%]": 87.1}
{"SMILES": "O=C1C2CN(Cc3cncs3)CCN2C(=O)N1c1ccccc1 (centres unmarked)", "remaining compound [%]": 62.5}
{"SMILES": "CC(=O)c1cc(-c2nccn2CCn2[nH]c(=O)ccc2=O)cs1", "remaining compound [%]": 93.7}
{"SMILES": "CCN(CC)CCCOC(=O)C1(c2ccc(F)cc2)CCCC1", "remaining compound [%]": 4.09}
{"SMILES": "CCN(CCCNC(=O)CN1C(=O)c2cccnc2Oc2ccc(C)cc21)c1cccc(C)c1", "remaining compound [%]": 0.132}
{"SMILES": "COCCn1c(C)cc(C)c(C(=O)NCCNc2ncccn2)c1=O", "remaining compound [%]": 70.6}
{"data": "Study 3", "target": "Protein kinase C delta type (PRKCD, Homo sapiens, UniProt Q05655)", "observed": "enzyme activity", "mode": "inhibitor", "concentration": "0.5 µM", "baseline": "control", "UniProt Q05655, sequence (whole entry, looked up)": "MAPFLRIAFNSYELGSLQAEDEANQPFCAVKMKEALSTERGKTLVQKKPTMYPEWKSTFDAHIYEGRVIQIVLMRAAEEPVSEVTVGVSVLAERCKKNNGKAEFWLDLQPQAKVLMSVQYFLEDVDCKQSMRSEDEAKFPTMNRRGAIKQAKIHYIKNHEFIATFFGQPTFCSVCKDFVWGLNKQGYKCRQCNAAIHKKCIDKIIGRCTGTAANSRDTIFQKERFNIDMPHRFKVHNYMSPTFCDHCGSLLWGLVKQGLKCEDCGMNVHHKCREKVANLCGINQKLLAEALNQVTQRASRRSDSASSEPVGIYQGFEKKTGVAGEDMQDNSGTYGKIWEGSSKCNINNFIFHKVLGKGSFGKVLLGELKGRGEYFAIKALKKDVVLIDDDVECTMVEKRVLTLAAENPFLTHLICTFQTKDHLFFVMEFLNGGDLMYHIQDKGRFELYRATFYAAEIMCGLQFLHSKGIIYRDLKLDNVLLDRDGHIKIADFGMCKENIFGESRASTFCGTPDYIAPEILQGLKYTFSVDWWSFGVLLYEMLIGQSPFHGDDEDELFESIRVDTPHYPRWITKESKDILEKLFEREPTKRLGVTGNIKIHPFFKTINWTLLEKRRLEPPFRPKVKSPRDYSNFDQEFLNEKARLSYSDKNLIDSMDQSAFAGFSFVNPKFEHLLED"}
{"SMILES": "Nc1ncnc2n[nH]c(Nc3ccc(F)cc3)c12", "remaining activity [%]": 112}
{"SMILES": "COc1ccc(OC)c2c(=S)c3ccccc3[nH]c12", "remaining activity [%]": 103}
{"SMILES": "COc1ccc(CNC(=O)Nc2ncc([N+](=O)[O-])s2)cc1", "remaining activity [%]": 100}
{"SMILES": "COc1cc2nccc(Oc3ccc(NC(=S)NC(=O)c4ccccc4C)cc3)c2cc1OC", "remaining activity [%]": 90.4}
{"SMILES": "O=c1c2ccccc2[nH]c(=S)n1CCN1CCC(=C(c2ccc(F)cc2)c2ccc(F)cc2)CC1", "remaining activity [%]": 95.7}
{"SMILES": "OCC(O)CCON=C1C(c2c(O)[nH]c3ccccc23)=Nc2ccccc21 (centres unmarked)", "remaining activity [%]": 80.6}
{"SMILES": "CC(C)[C@H](CO)Nc1nc(Nc2cc(N)cc(Cl)c2)c2ncn(C(C)C)c2n1", "remaining activity [%]": 87.6}
{"SMILES": "CNC(=O)c1cc(Oc2ccc(NC(=O)Nc3ccc(Cl)c(C(F)(F)F)c3)cc2)ccn1", "remaining activity [%]": 104}
{"SMILES": "O=C(O)c1ccc2c3c1cccc3c(=O)n1c3ccccc3nc21", "remaining activity [%]": 103}
{"SMILES": "CCOC(=O)c1c(C)[nH]c(/C=C2\\C(=O)Nc3ccccc32)c1C", "remaining activity [%]": 91.6}
{"SMILES": "CN(C)c1ccc(C=C2C(=O)Nc3ccccc32)cc1", "remaining activity [%]": 95.6}
{"SMILES": "N#CC(C#N)=C(N)/C(C#N)=C/c1ccc(O)cc1", "remaining activity [%]": 93.7}
{"SMILES": "Cn1sc(=O)n(Cc2ccccc2)c1=O", "remaining activity [%]": 94.1}
{"SMILES": "O=C1NC(=O)C(c2cn(CCCn3ccnc3)c3ccccc23)=C1Nc1ccccc1", "remaining activity [%]": 19.3}
{"data": "Study 4", "SMILES": "O=C(Nc1cccnn1)N1CC(C/C=C/c2cncc(Oc3ccc(C(F)(F)F)cn3)n2)C1", "observed": "cell-free assay", "method": "competition with immobilised ligand", "concentration": "1 µM"}
{"target": "PRKCH (Homo sapiens, UniProt P24723)", "remaining binding": "100%"}
{"target": "MTOR (Homo sapiens, UniProt P42345)", "remaining binding": "100%"}
{"target": "MAP3K10 (Homo sapiens, UniProt Q02779)", "remaining binding": "100%"}
{"target": "CSK (Homo sapiens, UniProt P41240)", "remaining binding": "100%"}
{"target": "MAPK7 (Homo sapiens, UniProt Q13164)", "remaining binding": "100%"}
{"target": "STK26 (Homo sapiens, UniProt Q9P289)", "remaining binding": "71%"}
{"note": "Excerpt of the above (study 1):"}
{"Compound": "CCc1nc(N)nc(N)c1-c1ccc(Cl)cc1", "nuclei count": "-0.865 z-score and -2.69 z-score"}
{"Compound": "OCCN1CCN(CCCN2c3ccccc3C=Cc3ccccc32)CC1", "nuclei count": "1.57 z-score"}
{"Compound": "Nc1ccc(S(=O)(=O)Nc2nccs2)cc1", "nuclei count": "0.938 z-score"}
{"Compound": "CCOc1ccc(-c2nc(-c3cccc4c3CCC4NCCO)no2)cc1OCC (centres unmarked)", "nuclei count": "-5.74 z-score"}
